Measurements from different studies.
Every numbered part comes from another study and shows a few of its results, in no order.

Set 1
Target: Interferon regulatory factor 7, full length, phosphomimetic (IRF7, Homo sapiens, UniProt Q92985, residues 1-503, S471D/S472D/S475D/S476D/S477D/S483D/S484D/S487D)
UniProt Q92985, sequence (whole entry, unmodified, looked up): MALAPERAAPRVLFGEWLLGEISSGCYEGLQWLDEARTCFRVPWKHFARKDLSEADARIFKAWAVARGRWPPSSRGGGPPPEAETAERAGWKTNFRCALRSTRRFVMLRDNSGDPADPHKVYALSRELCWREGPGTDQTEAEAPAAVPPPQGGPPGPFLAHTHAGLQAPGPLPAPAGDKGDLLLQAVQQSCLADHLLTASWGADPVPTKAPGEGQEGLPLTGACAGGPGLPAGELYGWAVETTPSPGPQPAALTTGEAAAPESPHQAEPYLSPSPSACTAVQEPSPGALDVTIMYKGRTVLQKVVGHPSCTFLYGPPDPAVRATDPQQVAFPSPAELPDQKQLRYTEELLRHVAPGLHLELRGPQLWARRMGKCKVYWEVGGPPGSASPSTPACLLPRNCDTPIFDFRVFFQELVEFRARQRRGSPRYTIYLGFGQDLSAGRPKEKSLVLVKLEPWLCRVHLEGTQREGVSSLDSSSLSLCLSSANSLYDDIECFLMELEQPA
Method: protein-binding microarray
Form: double-stranded DNA, one strand shown
Sample: in vitro
Concentration: 2200 nM top
Setting: 60-bp whole probe
Added: salmon DNA 0.4 mg/ml
Reference: random background probes
Reading: higher = stronger binding
Measurement: fitted relative affinity
Shared flanks, not repeated: GCCTAGCAC … GTGCTAGGTCTTGATTCGCTTGACGCTGCTG
GACGGACTGCTTAGCCTGAC: -0.392 z-score
ATTTACATGCATATAGTATA: 0.616 z-score
TTAGGTATCGGACCGGGTTA: -0.238 z-score
TTAGGTATCGTTCTCGGTTA: 1.33 z-score
GACGGTCTCGGTTCCGGGAC: 0.815 z-score

Set 2
Target: TAR DNA-binding protein 43, full length, His tag (TARDBP, Homo sapiens, UniProt Q13148, residues 1-414)
Method: RNA Bind-n-Seq
Form: RNA
Sample: in vitro
Concentration: 20 nM
Setting: 6-mer, flanks averaged, single round
Added: 150 mM KCl
Reference: input library
Reading: higher = stronger binding
Measurement: 6-mer enrichment (R)
ACUCCG: 0.654
AACUCU: 0.6
ACAGCG: 1.06

Set 3
Target: Sal-like protein 4, full length isoform B (SALL4, Homo sapiens, UniProt Q9UJQ4-2, residues 1-616)
Method: universal PBM
Form: double-stranded DNA, one strand shown
Sample: in vitro
Concentration: not given
Setting: 8-mer, flanks averaged, mean of replicates
Reading: higher = stronger binding
Measurement: E-score
Construct (chain): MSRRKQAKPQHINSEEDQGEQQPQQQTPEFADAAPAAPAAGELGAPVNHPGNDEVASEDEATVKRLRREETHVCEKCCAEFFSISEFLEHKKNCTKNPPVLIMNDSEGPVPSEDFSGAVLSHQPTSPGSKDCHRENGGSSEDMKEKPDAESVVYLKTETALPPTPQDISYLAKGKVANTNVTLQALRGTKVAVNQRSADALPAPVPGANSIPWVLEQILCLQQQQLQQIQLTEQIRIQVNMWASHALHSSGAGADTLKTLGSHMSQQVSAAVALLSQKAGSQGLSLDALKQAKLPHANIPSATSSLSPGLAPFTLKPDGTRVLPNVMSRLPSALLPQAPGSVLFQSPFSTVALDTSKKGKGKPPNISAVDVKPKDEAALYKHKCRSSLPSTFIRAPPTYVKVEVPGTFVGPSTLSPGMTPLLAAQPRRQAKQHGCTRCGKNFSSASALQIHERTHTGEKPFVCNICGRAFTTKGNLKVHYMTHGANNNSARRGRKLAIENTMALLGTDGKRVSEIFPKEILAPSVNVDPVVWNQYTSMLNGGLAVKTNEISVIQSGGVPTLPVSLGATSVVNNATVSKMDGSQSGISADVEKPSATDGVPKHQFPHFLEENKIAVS
ACTCTAGC: -0.0137
AAGCCTTG: -0.0873
CTAAGGCA: -0.129
ACAAAATA: 0.283
ACGGATCT: -0.154

Single results of other studies
PhoQ, residues 284 288 289 292 302 303 SQSLSM
fold induction (PhoP, residues 12 14 15 18 19 VQGLL (Escherichia coli, UniProt P23836); Sort-seq, item: YFP reporter; E. coli; PhoQ-PhoP variant library, added: 10 µM Mg2+; reference: high Mg2+ state, higher = stronger signaling): 15.8

Some of these lines once more (set 1):
TTAGGTATCGGACCGGGTTA: -0.238 z-score
TTAGGTATCGTTCTCGGTTA: 1.33 z-score
